Experimental data of several laboratories.
Numbered parts are unrelated; each lists some results of a single study. Substitutions count along the parent as printed.

Set 1
Target: Prothrombin, mature alpha-thrombin (F2, Homo sapiens, UniProt P00734)
Technique: aptamer microarray, sandwich
Molecule type: DNA with 2'F-ANA
Matrix: in vitro
Concentration: 200 nM
Setting: whole 15-mer aptamer, many near background
Added: Cy3 exosite-II aptamer, 400 nM
Reading: higher = stronger binding
Strand: GGTTGGTGTGGTTGG
| Modification | mean fluorescence intensity [a.u.] |
| --- | --- |
| 2'F-ANA at 3 6 8 11 13 14 | 535 |
| 2'F-ANA at 1 2 4 5 8 13 14 | 45.9 |
| 2'F-ANA at 1 2 4 8 10 11 12 | 58.1 |
| 2'F-ANA at 2 4 7 9 13 14 | 140 |
| 2'F-ANA at 4 5 6 8 9 10 11 15 | 45.8 |
| 2'F-ANA at 2 3 4 5 7 9 11 15 | 70.3 |
| 2'F-ANA at 1 2 4 5 8 9 10 11 15 | 50.9 |
| 2'F-ANA at 6 7 9 10 15 | 221 |
| 2'F-ANA at 1 5 6 11 12 13 15 | 68.6 |
| 2'F-ANA at 2 5 6 7 8 11 12 14 15 | 51.5 |
| 2'F-ANA at 1 7 9 11 12 14 15 | 88.6 |
| 2'F-ANA at 2 3 4 6 7 10 12 14 15 | 182 |
| 2'F-ANA at 2 5 6 7 8 10 13 14 | 54.8 |
| 2'F-ANA at 1 2 3 4 5 7 8 12 15 | 130 |
| 2'F-ANA at 1 4 5 6 7 10 11 14 | 48.5 |
| 2'F-ANA at 1 2 3 4 7 8 9 13 14 15 | 61.1 |
| 2'F-ANA at 1 2 3 4 5 6 12 13 14 15 | 49.9 |
| 2'F-ANA at 2 4 5 6 8 9 11 15 | 58.1 |
| 2'F-ANA at 2 3 4 5 6 8 10 14 15 | 76.4 |
| 2'F-ANA at 1 2 4 5 6 7 8 11 12 15 | 198 |
| 2'F-ANA at 2 3 5 9 10 11 13 | 54.1 |
| 2'F-ANA at 1 3 5 6 7 8 12 13 14 15 | 48.3 |
| 2'F-ANA at 1 2 3 4 5 8 13 15 | 56.3 |
| 2'F-ANA at 1 4 7 8 9 11 | 142 |
| 2'F-ANA at 1 2 5 6 7 8 9 11 12 13 | 80.6 |

Set 2
Target: Fragile X messenger ribonucleoprotein 1, C-terminal low-complexity region (Fmr1, Mus musculus, UniProt P35922)
Technique: RNA Bind-n-Seq
Molecule type: RNA
Matrix: in vitro
Concentration: 200 nM
Setting: whole 134-nt RNA, ends assumed
Added: 150 mM LiCl
Baseline: input library
Reading: higher = stronger binding
Each molecule: 7-deaza-guanosine replaces G
Constant ends, left off below: GGGAGUUCUACAGUCCGACGAUC … UGGAAUUCUCGGGUGUCAAGG
| Strand | log2 enrichment |
| --- | --- |
| UCAAGUCCUGUGCUACACAUCGUAUGUACCGAAUCGGCCCGGGCCCGGCCCGGGAAAGUAUUAUGUUACGCCGUUCGGAUCUGCACUUCC | -1.29 |
| UCCUGUGCUACACAUCGUAUGUACCGAAUCGGUUUUUUGGGGUUUUUUGGGUUUUUUGGGAAAGUAUUAUGUUACGCCGUUCGGAUCUGC | -0.226 |
| CAAGUCCUGUGCUACACAUCGUAUGUACCGAAUCAAACCCAAACCCAAACCCAAAAAAGUAUUAUGUUACGCCGUUCGGAUCUGCACUUC | 0.303 |
| ACCAUGCAGGUGGAAAUCUUUGGGAAGUGGGGCAAGGGGGGGAUAGGGAGGGGGGUAACACUUUGGGAACAGGUGGUCCCAGGUCGUUUC | 1.29 |
| UGGCCCUGGUGGCAUGCGGGGAGGAAGAGGUGGCCUCAUGGAUCGUGGUGGUCCCGGUGGAAUGUUCAGAGGUGGACGUGGUGGAGACAG | -0.488 |
| GCAGGAAGUAAAAAUAAAUGGAAAUGCUUCGGAUAGUGGCAGGGGUGGGGGUUGCUAAGGAAAGGGUGGGAUGGGAGUGGGUAAAGAGUU | 1.68 |
| CUGUGCUACACAUCGUAUGUACCGAAUCGGGGCCCCCCCGGGCCCCCCCGGGCCCCCCCGGAAAGUAUUAUGUUACGCCGUUCGGAUCUG | -0.431 |
| CUCAAGUCCUGUGCUACACAUCGUAUGUACCGAAUCGGAGGUGGUUUUUUUGGAAAGUAUUAUGUUACGCCGUUCGGAUCUGCACUUCCA | -0.992 |
| UGGCCCUGGUGGCAUGCGGGGAGAAAGAGGUGGCCUCAUGGAUCGUGGUGGUCCCGGUGGAAUGUUCAGAGGUGGCCGUGGUGGAGACAG | 0.341 |
| CCUCAAGUCCUGUGCUACACAUCGUAUGUACCGAAUCGGAGGUGGAAAAAGGAAAGUAUUAUGUUACGCCGUUCGGAUCUGCACUUCCAG | -0.839 |
| GCAGGAAGUAAAAACAAAUGGAAAUGCUUCGGAUAGUGGCAGGGGUGGGGGUUGCUAAGGAAAGGGUGGGAUGGGAGUGGGUAAAGAUUU | 1.66 |

Set 3
Target: RNA binding protein fox-1 homolog 2, RRM domain, GST-SBP tag (RBFOX2, Homo sapiens, UniProt O43251-10, residues 100-194)
Technique: RNA Bind-n-Seq
Molecule type: RNA
Matrix: in vitro
Concentration: 365 nM
Setting: natural RNA segment, single round, ends assumed
Baseline: no-protein control
Reading: higher = stronger binding
Constant ends, left off below: GGGAGUUCUACAGUCCGACGAUC … UGGAAUUCUCGGGUGCCAA
Construct (chain): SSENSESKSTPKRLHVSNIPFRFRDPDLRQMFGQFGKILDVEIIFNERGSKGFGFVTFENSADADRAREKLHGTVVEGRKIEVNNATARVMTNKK
| Strand | RBNS enrichment (R) |
| --- | --- |
| CUCCCCACAGUGGAAUUGUUGAAGUGUGGCGAGUCUGUGCUCGGGACAAUAAAGCUUGUGACAGGUCCAGGACCCCGGCAGUUGGCUUGUCUCCUCCUCUCCGUGGGGAC | 0.278 |
| GAAUGUGUCUCAGAGAUUUCCUGCAAGAAACUCAGGUCCAAUCUGGACUAGAAUAAAGACCUCUGGGGCUGGAGAGAGAGCUCAGUGGUUAAGAGUACUGGCUGUUGGGG | 1.38 |
| GAUACUGUCCCCAGGAGCACCCUCCCUGCCCGUCUUGUCCCUCUGCCCCUCCCACCUGCACAUGUCACACUGACCACAUCUGUAGACAUCUUGAGUUGUAGCUGCAGACG | 2.04 |
| CCAUCUACCCUGUCACACUUCACCAGAAGGGAGAAGGUUGUUGCCAGUCACCAGGGAGCUCACUUUCCACUUGGAGACGCUUUGCUCUGCUUGUGCACCGCCAGCUUCUG | 0.525 |
| GCCAUCGGAGGUGCCUGAAGAGCUUGUGUCAGGGAGCGGUUUGGCCAGUCAGAGACAAGUCCCAAGAGAUUUCAUGGAGCCUUGGAUGACACACACGCCAUCAGCCCUUG | 2.48 |
| UUAGCAGUUGAAUCCAAACCAGUUUCAUUUAGCUGGAAGUAGACAGGAAGGAGCUGCCUUAAGCACUUUAGAAAAAGAAUUUGCUACAAUUCAUUUGACUCAGCUGAUUG | 0.356 |
| AGCCCAGCCCACCCUGCGACUGGUUCUUGGUUUAAUAAACACAUGUAAGAGUUCUUUCCACCACUGACUAGCAUUUGCUGACAAAUCACUGGACUGGGGUUGGGACCACA | 0.324 |
| CCUAGAAUUUCUUUUAUAAAUGCUUUGUUUACAUUUUAGAUUGUAUCUGUCCUUAAUGUCAAAUGAUGAAUCCAGUUUGAAUCAGCUGUCAUUCCAAGCUAUCAUGCUCA | 0.604 |
| AAGGUCACAGAGCUCCACCACCCAUGUCCUGUGUCAACAACCCGGUCCCUGUGGCACCUGUAACUGGCCAUAGUGUCUUUCUGGUCUGUGUGUUCUUCCAGCCAGCCUUG | 0.78 |
| AAACUAUUCUCGCAAGGAAAACAUUGCCACCAUUUGUAGAACAUGUAAUCUUCAAGUAUGUGCUAUUUUUUGUCCCUGUAUCUAAGUCAAAUCAGGAACUUUUUUCUAAC | 0.454 |
| GUUGCCAGAUAUAACUGCUUUGGAGCAAAUCUCUUCUGUUUAGAGAGAUAGAAGUUAUGACAUAUGUAAUACACAUCUGUGUACACAGAAACCGGCACCUGCCAGACAGA | 0.315 |
| UGGUGGUUUCUGUGAGAAUUGGCCAUCCUGAGGACACAGCCAGGACGGCAGAGGCCUCCUGGCCUCAGGGCAUGCCCUGCCUACCUUCUGAAAUGUUUACCCCAUUGACC | 0.445 |

Set 4
Target: CCND1, cyclin fold, Cln2 fusion (human)
Technique: yeast growth competition, sequencing
Matrix: yeast
Setting: weak parent motif
Baseline: not given
Reading: higher = stronger binding
Parent: RB1 docking peptide (human); PKPLKKLRFDIEG
| Variant | normalised enrichment score |
| --- | --- |
| R8E | -0.591 |
| K6G | 0.0701 |
| D10N | 0.241 |
| R8M | 0.369 |
| R8H | 0.257 |
| K5C | 0.243 |
| G13H | 0.0454 |
| D10T | -0.272 |
| I11V | 0.0464 |
| F9Y | -0.485 |
| K2Y | 0.994 |
| I11S | 0.273 |
| P1N | -0.589 |
| I11T | -0.613 |
| L4G | 0.02 |
| L7Y | -0.362 |
| D10G | 1.36 |
| L4N | 0.13 |
| D10L | 0.164 |

Repeated from above (set 1):
| Modification | mean fluorescence intensity [a.u.] |
| --- | --- |
| 2'F-ANA at 4 5 6 8 9 10 11 15 | 45.8 |
| 2'F-ANA at 2 3 4 5 7 9 11 15 | 70.3 |
| 2'F-ANA at 1 2 4 5 8 9 10 11 15 | 50.9 |
| 2'F-ANA at 6 7 9 10 15 | 221 |
| 2'F-ANA at 1 5 6 11 12 13 15 | 68.6 |
| 2'F-ANA at 2 5 6 7 8 11 12 14 15 | 51.5 |
| 2'F-ANA at 1 7 9 11 12 14 15 | 88.6 |
| 2'F-ANA at 2 3 4 6 7 10 12 14 15 | 182 |
| 2'F-ANA at 2 5 6 7 8 10 13 14 | 54.8 |
